Results from different studies.
A part holds a random share of what one study measured. Positions count from the first letter of the parent shown.

Set 1
Target: Histone acetyltransferase KAT6A, winged helix 1, GST fusion (KAT6A, Homo sapiens, UniProt Q92794, residues 1-85)
Method: protein binding microarray
Form: double-stranded DNA, one strand shown
Matrix: in vitro
Concentration: not given
Setting: 8-mer, flanks averaged, mean of 2 arrays, mostly near background
Reference: not given
Direction: higher = stronger binding
Target sequence (chain): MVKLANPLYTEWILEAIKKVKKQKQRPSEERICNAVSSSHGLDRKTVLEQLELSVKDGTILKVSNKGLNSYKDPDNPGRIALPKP
With `AGGTACGA` the E-score was -0.134.
`CCTTCCGA` has an E-score of 0.0139.
For `ACTCGACG`, the E-score was 0.0192.
`CTACGACA` gave an E-score of -0.153.
`CCCGTGAG` has an E-score of 0.283.
`CATACCAG` has an E-score of -0.237.
`ATTCATGC` has an E-score of -0.048.
For `CTAGTAGC`, the E-score was 0.0855.
`CGTCGGTC` has an E-score of 0.332.
With `GAGTCATC` the E-score was -0.04.
`GAGGTATA` has an E-score of -0.0939.
`TAACCGCA` gave an E-score of 0.105.
`CACAAGGG` gave an E-score of -0.201.
The E-score of `ACTTCTAC` is reported as -0.27.
`GTGCTTAA` gave an E-score of 0.0214.
`AGTGGAAA` has an E-score of -0.219.
`CGACAAAA` has an E-score of -0.106.
The E-score of `TCTCGTAA` is reported as 0.076.
`GAACCCGC` gave an E-score of 0.392.

Set 2
Target: CCNF, cyclin fold, Cln2 fusion (human)
Method: yeast growth competition, sequencing
Matrix: yeast
Setting: strong parent motif
Reference: not given
Direction: higher = stronger binding
Starting sequence: SCAPER docking peptide (human); SNARRSLNFGGST
`SNARRELNFGGST [S6E]`: “normalised enrichment score” 5.3.
`SNARRSLNFGNST [G11N]` — result for “normalised enrichment score”: 6.84.
`SNARRSLDFGGST [N8D]`: “normalised enrichment score” 6.22.
For `SNAQRSLNFGGST [R4Q]`, “normalised enrichment score” read 5.2.
`SNARRSLEFGGST [N8E]`: “normalised enrichment score” 5.71.
Under “normalised enrichment score”, `LNARRSLNFGGST [S1L]` is recorded as 8.05.
For `SNARRSLNMGGST [F9M]`, “normalised enrichment score” read 4.96.
Under “normalised enrichment score”, `SNARRSLNDGGST [F9D]` is recorded as 0.194.
`SNARRFLNFGGST [S6F]` — result for “normalised enrichment score”: 8.33.
`SNARRSLNFGGSM [T13M]` — result for “normalised enrichment score”: 7.66.
Under “normalised enrichment score”, `SNARRSENFGGST [L7E]` is recorded as -0.442.
For `STARRSLNFGGST [N2T]`, “normalised enrichment score” read 7.06.
Under “normalised enrichment score”, `SNARHSLNFGGST [R5H]` is recorded as 0.366.
`SFARRSLNFGGST [N2F]`: “normalised enrichment score” 8.14.
Under “normalised enrichment score”, `SNARRSLNFGEST [G11E]` is recorded as 6.4.
Under “normalised enrichment score”, `SNARRSLNFGGSV [T13V]` is recorded as 7.94.
Under “normalised enrichment score”, `SNARRSLNFGGSP [T13P]` is recorded as 7.09.
Under “normalised enrichment score”, `SNARLSLNFGGST [R5L]` is recorded as 0.313.
For `SNARRRLNFGGST [S6R]`, “normalised enrichment score” read 9.48.
Under “normalised enrichment score”, `SNARRSLNFMGST [G10M]` is recorded as 6.65.
`SNARRSLNFGGNT [S12N]` — result for “normalised enrichment score”: 7.14.
Under “normalised enrichment score”, `SNARTSLNFGGST [R5T]` is recorded as 0.813.
For `SNARRSLNFGAST [G11A]`, “normalised enrichment score” read 6.78.

Set 3
Target: Protein C-ets-1 (ETS1, Homo sapiens, UniProt P14921, residues 1-441, Y397A, full length assumed)
Method: protein-binding microarray
Form: double-stranded DNA, one strand shown
Matrix: in vitro
Concentration: not given
Setting: k-mer, scored over probes, only values ≥0.25
Direction: higher = stronger binding
Residues (chain): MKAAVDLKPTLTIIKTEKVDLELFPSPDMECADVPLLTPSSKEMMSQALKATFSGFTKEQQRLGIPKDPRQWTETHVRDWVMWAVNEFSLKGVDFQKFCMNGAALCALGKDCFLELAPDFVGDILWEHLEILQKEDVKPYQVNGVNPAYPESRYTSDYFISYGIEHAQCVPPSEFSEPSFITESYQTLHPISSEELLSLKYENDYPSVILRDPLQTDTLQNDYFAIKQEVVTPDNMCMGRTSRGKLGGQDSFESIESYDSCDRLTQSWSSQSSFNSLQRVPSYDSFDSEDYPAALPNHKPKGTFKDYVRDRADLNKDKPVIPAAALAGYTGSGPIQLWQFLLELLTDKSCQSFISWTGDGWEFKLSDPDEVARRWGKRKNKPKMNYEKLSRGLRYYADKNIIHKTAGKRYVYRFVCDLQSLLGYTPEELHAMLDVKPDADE
`ACACAAAA` has an E-score of 0.262.
`AGGATGTG` gave an E-score of 0.257.
The E-score of `CGTCGACA` is reported as 0.286.
The E-score of `GACGTCAA` is reported as 0.274.
The E-score of `CGACATCC` is reported as 0.299.
The E-score of `GTACACAA` is reported as 0.273.
With `ACTTCCGG` the E-score was 0.49.
For `CGACAATA`, the E-score was 0.326.
With `CCTCCCCG` the E-score was 0.337.
The E-score of `CACATGAC` is reported as 0.319.
With `ATATCCGG` the E-score was 0.398.
`CGATTGCG` has an E-score of 0.267.
With `GGCGACAA` the E-score was 0.251.
For `ACAACACA`, the E-score was 0.265.
For `CGTTGCCA`, the E-score was 0.284.
`ACAAAATG` gave an E-score of 0.316.
The E-score of `ACAATGGC` is reported as 0.323.
`CTATATAC` gave an E-score of 0.268.
`ACTACAAT` gave an E-score of 0.269.
The E-score of `ATTATGCG` is reported as 0.256.

Set 4
Target: CRIPT, C-terminal peptide
Method: DHFR complementation, deep sequencing
Matrix: yeast
Setting: single substitutions, model-inferred values
Reference: wild type
Direction: higher = weaker binding
Starting sequence: ERBIN, PDZ domain 1 (human); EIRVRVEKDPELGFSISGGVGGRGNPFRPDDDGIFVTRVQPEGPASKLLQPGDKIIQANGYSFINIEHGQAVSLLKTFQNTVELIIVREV; partner TKNYKQTSV
`V20N`: “binding free energy change” 0.297 kcal/mol.
Under “binding free energy change”, `E83M` is recorded as 0.182 kcal/mol.
`Q57V` — result for “binding free energy change”: 0.03 kcal/mol.
`G69S`: “binding free energy change” 0.0901 kcal/mol.
`I16S` — result for “binding free energy change”: 1.36 kcal/mol.
For `H68Q`, “binding free energy change” read 1.13 kcal/mol.
`I85K` — result for “binding free energy change”: -0.0205 kcal/mol.
Under “binding free energy change”, `E42Y` is recorded as 0.24 kcal/mol.
For `Q79I`, “binding free energy change” read 0.0865 kcal/mol.
`N25S`: “binding free energy change” 0.758 kcal/mol.
Under “binding free energy change”, `S17P` is recorded as 0.734 kcal/mol.
Under “binding free energy change”, `E1D` is recorded as 0.263 kcal/mol.
`I56A`: “binding free energy change” 0.127 kcal/mol.
`P29A`: “binding free energy change” -0.0255 kcal/mol.

Excerpt of the above (set 2):
Under “normalised enrichment score”, `SNARHSLNFGGST [R5H]` is recorded as 0.366.
`SFARRSLNFGGST [N2F]`: “normalised enrichment score” 8.14.
Under “normalised enrichment score”, `SNARRSLNFGEST [G11E]` is recorded as 6.4.
Under “normalised enrichment score”, `SNARRSLNFGGSV [T13V]` is recorded as 7.94.
